# Published values from different studies.
# Parts stem from different laboratories: compare values within a part only.
# Chain of UniProt Q9HBY8 (whole entry, looked up): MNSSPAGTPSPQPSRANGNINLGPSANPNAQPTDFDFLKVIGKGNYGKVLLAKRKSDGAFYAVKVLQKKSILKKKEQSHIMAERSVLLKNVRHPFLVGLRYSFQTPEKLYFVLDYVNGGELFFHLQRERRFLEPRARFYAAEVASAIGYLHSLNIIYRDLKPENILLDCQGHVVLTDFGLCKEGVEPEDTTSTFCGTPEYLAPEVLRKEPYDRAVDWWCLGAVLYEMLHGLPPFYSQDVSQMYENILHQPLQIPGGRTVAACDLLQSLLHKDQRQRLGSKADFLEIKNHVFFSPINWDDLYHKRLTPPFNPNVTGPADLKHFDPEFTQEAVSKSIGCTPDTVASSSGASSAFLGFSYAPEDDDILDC
# Chain of UniProt Q7KZI7 (whole entry, looked up): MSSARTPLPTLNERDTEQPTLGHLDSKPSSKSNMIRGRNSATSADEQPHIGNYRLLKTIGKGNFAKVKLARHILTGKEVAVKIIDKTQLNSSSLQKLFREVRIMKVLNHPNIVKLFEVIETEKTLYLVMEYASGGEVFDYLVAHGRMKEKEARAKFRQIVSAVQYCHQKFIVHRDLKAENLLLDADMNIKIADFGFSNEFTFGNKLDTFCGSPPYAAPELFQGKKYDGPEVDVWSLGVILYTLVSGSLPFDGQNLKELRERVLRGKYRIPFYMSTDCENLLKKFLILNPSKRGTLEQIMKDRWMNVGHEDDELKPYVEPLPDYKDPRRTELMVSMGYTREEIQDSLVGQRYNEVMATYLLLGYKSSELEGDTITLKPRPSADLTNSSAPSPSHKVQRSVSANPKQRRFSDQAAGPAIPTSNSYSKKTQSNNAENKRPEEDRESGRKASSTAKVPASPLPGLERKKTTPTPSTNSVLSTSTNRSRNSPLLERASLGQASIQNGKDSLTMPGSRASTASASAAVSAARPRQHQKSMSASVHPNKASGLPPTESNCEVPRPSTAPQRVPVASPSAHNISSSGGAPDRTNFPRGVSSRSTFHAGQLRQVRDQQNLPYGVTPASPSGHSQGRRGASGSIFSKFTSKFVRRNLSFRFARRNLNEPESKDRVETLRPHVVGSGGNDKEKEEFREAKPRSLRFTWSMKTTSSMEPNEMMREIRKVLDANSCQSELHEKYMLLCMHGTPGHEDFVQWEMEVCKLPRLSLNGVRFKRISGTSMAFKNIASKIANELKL
# Chain of UniProt O15146 (whole entry, looked up): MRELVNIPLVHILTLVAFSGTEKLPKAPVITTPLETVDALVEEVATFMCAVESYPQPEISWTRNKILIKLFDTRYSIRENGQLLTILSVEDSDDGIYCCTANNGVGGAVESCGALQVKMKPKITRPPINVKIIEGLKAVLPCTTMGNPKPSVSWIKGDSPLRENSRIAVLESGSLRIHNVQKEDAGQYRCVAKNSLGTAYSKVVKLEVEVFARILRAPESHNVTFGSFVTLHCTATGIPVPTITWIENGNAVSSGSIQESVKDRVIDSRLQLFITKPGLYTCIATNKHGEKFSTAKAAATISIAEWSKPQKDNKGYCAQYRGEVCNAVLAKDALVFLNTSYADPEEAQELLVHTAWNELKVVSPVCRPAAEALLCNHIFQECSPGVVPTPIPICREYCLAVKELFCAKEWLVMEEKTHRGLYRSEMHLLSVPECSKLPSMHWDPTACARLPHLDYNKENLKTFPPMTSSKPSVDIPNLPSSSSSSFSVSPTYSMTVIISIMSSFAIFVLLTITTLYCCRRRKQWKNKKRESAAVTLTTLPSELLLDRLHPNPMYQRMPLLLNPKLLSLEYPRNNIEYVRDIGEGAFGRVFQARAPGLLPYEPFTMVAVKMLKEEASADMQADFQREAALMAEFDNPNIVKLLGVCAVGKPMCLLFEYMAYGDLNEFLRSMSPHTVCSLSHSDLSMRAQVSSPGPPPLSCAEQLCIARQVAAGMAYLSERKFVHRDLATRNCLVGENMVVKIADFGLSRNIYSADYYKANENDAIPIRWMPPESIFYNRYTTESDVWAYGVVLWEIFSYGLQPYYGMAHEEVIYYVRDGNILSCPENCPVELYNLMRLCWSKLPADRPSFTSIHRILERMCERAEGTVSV
# Chain of UniProt P42680 (whole entry, looked up): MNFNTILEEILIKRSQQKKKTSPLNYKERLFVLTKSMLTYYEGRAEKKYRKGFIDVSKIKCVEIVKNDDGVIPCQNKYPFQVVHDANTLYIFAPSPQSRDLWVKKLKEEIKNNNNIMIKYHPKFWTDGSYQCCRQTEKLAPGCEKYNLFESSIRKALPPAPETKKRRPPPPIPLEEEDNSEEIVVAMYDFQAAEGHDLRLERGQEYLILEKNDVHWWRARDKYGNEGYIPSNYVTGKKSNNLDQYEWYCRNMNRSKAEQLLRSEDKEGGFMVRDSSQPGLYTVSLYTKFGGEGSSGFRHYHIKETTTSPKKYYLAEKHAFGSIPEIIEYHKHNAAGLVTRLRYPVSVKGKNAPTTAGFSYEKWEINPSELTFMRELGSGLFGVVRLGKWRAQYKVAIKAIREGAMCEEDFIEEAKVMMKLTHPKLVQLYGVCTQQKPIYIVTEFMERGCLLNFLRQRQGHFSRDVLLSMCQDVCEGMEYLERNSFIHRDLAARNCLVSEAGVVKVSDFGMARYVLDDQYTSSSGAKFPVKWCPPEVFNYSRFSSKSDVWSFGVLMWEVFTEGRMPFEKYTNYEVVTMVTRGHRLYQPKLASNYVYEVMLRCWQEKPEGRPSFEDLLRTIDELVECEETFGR
# Chain of UniProt P19525 (whole entry, looked up): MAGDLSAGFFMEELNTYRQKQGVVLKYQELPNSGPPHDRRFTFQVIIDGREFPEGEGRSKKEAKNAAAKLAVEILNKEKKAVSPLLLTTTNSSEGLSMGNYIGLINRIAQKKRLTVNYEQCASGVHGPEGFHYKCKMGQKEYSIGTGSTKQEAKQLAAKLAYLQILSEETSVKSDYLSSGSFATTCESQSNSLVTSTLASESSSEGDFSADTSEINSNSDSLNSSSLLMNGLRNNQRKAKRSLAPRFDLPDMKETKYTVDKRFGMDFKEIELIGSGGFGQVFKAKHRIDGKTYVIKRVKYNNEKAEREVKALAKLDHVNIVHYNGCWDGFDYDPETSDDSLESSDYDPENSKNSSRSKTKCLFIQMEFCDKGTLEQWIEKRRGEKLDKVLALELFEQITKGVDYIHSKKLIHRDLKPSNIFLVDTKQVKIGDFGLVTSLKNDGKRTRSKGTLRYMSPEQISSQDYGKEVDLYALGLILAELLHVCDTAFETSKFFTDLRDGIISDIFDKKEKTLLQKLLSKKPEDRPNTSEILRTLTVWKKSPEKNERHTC
# Chain of UniProt P52333 (whole entry, looked up): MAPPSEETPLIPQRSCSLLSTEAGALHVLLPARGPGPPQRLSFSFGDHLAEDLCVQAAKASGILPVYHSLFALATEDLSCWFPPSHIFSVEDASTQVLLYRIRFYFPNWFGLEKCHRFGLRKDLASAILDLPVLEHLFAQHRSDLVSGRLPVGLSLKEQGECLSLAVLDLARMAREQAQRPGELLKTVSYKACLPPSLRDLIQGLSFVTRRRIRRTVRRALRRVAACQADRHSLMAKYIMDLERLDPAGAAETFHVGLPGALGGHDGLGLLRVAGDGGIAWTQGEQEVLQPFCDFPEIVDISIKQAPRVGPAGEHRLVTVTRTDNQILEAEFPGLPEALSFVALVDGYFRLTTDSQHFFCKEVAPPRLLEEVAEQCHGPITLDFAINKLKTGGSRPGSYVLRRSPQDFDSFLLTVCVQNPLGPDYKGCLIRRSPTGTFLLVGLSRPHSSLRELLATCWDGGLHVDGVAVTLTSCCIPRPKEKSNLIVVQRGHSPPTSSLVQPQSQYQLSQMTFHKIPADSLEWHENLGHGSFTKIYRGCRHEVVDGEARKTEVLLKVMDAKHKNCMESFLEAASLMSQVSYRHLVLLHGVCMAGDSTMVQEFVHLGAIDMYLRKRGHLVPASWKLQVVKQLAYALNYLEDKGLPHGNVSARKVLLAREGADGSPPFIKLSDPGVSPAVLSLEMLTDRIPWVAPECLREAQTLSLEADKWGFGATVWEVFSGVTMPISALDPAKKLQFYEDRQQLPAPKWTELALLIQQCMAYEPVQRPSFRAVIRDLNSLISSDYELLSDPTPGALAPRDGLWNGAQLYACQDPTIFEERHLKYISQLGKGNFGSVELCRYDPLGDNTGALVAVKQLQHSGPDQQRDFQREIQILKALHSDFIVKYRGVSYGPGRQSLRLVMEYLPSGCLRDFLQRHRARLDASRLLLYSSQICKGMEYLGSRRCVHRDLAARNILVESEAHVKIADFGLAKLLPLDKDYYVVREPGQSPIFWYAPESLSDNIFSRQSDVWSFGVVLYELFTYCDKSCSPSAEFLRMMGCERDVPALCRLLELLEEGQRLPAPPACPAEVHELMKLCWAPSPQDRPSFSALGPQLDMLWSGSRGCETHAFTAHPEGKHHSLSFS
# Chain of UniProt P52564 (whole entry, looked up): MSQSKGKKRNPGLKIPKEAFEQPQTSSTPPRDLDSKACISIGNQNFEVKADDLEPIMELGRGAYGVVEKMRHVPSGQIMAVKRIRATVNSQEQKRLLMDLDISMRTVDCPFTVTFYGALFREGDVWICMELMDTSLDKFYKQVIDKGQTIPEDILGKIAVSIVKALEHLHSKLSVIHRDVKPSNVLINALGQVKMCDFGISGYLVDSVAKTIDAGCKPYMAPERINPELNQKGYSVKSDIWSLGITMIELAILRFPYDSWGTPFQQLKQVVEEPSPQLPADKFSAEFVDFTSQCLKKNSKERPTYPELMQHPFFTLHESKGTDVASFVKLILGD
# Chain of UniProt Q9UIK4 (whole entry, looked up): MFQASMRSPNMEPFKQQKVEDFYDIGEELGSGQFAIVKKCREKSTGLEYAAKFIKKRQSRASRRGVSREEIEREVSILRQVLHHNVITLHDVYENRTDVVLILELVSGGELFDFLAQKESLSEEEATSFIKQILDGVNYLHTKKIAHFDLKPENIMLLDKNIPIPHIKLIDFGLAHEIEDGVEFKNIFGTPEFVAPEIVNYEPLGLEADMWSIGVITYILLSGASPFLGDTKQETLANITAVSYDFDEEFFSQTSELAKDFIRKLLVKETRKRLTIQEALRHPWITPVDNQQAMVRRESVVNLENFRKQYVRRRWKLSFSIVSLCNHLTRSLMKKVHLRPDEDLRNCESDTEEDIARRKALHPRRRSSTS

# Study 1 — read-out: binding; tested at: 1 µM
# SMILES: CN1CCN(C(=O)c2ccc(NC(=O)Nc3ccc(N(C)c4ccnc(Nc5ccc(CS(C)(=O)=O)cc5)n4)cc3)cc2)CC1
target,technique,remaining binding
"DAPK2 (Homo sapiens, UniProt Q9UIK4)",,100%
"EIF2AK2 (Homo sapiens, UniProt P19525)",,100%
"MAPK15 (Homo sapiens, UniProt Q8TD08)",competition with immobilised ligand,25%
"MAK (Homo sapiens, UniProt P20794)",,64%
"FLT3 (Homo sapiens, UniProt P36888)",competition with immobilised ligand,1.5%
"RIOK1 (Homo sapiens, UniProt Q9BRS2)",,2.2%
"MARK2 (Homo sapiens, UniProt Q7KZI7)",,84%
"HCK (Homo sapiens, UniProt P08631)",competition with immobilised ligand,100%

# Study 2 — Compound: CCN1/C(=C/C(C)=O)Sc2ccc(OC)cc21; read-out: enzyme activity; mode: inhibitor; tested at: 0.5 µM; baseline: control
target,remaining activity
"SGK2 (Homo sapiens, UniProt Q9HBY8)",93.7%
"MUSK (Homo sapiens, UniProt O15146)",28.4%
"PRKCQ (Homo sapiens, UniProt Q04759)",95.9%
"MAP3K20 (Homo sapiens, UniProt Q9NYL2)",91%
"CLK1 (Homo sapiens, UniProt P49759)",41.8%
"SRPK1 (Homo sapiens, UniProt Q96SB4)",106%
"FLT1 (Homo sapiens, UniProt P17948)",88.4%
"ERBB2 (Homo sapiens, UniProt P04626)",99.9%
"TEC (Homo sapiens, UniProt P42680)",116%
"YES1 (Homo sapiens, UniProt P07947)",91.8%
"PAK1 (Homo sapiens, UniProt Q13153)",92.9%
"JAK2 (Homo sapiens, UniProt O60674)",97.1%
"ACVRL1 (Homo sapiens, UniProt P37023)",102%
"BRSK2 (Homo sapiens, UniProt Q8IWQ3)",89.5%
"FES (Homo sapiens, UniProt P07332)",101%
"Cyclin-dependent kinase 2, with cyclin E (CDK2, Homo sapiens, UniProt P24941)",87.7%
"JAK1 (Homo sapiens, UniProt P23458)",98.9%

# Study 3 — cell line: HaCaT; tested at: 100 µM; time: 18 h
Compound,viability
NC(=O)NS(=O)(=O)c1ccc(N)cc1,114%
COc1cc2nccc(Oc3ccc(NC(=O)NC4CC4)c(Cl)c3)c2cc1C(N)=O,98%
C#C[C@]1(O)CC[C@H]2[C@@H]3CCC4=Cc5oncc5C[C@]4(C)[C@H]3CC[C@@]21C,16.3%
Cc1cn([C@H]2C=C[C@@H](CO)O2)c(=O)[nH]c1=O,99.2%
COc1ccccc1OCC(O)CO (centres unmarked),108%
C[n+]1cc2c3c(ccc2c2ccc4cc5c(cc4c21)OCO5)OCO3,108%
c1ccc(CN(CC2=NCCN2)c2ccccc2)cc1,95.5%

# Study 4 — read-out: cell-free assay; technique: competition with immobilised ligand; tested at: 1 µM
# SMILES: O=C1NC(c2ccccn2)Sc2ccccc21 (centres unmarked)
target,remaining binding
"PDGFRB (Homo sapiens, UniProt P09619)",83%
"DSTYK (Homo sapiens, UniProt Q6XUX3)",92%
"Tyrosine-protein kinase JAK3, JH1 (JAK3, Homo sapiens, UniProt P52333)",100%
"FLT3 (Homo sapiens, UniProt P36888, ITD)",100%
"WNK4 (Homo sapiens, UniProt Q96J92)",100%
"NEK4 (Homo sapiens, UniProt P51957)",58%
"SGK2 (Homo sapiens, UniProt Q9HBY8)",72%
"FLT3 (Homo sapiens, UniProt P36888, D835V)",100%
"MAP2K6 (Homo sapiens, UniProt P52564)",100%
